Experimental data pooled from the literature.
Each numbered part is a random draw from the data of one study; scales do not carry over between parts.
Chain of UniProt P10721 (whole entry, unmodified, looked up): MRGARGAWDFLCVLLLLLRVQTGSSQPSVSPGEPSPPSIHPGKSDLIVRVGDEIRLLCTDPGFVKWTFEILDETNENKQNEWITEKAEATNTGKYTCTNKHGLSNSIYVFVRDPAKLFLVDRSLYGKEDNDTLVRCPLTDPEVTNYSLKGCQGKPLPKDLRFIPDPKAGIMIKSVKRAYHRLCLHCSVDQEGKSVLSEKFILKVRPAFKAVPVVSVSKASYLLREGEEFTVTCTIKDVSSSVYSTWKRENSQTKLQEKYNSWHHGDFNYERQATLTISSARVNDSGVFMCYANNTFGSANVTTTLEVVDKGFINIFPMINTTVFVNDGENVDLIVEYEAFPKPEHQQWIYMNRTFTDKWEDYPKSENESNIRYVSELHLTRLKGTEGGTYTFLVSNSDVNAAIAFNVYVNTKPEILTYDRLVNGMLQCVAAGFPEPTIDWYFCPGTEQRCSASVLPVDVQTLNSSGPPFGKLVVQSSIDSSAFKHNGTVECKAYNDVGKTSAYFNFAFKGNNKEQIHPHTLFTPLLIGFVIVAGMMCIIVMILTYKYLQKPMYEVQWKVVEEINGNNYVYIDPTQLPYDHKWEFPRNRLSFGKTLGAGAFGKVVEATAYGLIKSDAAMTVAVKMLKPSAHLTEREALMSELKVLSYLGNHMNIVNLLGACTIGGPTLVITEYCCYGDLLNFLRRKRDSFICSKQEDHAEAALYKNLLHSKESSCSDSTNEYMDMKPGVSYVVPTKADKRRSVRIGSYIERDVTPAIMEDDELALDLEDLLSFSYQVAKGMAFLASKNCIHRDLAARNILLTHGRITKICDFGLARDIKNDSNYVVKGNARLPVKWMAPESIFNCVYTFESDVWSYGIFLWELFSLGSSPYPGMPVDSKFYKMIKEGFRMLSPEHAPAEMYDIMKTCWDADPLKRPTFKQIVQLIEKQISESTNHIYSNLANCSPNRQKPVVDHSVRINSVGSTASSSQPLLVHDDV
Chain of UniProt P31749 (whole entry, looked up): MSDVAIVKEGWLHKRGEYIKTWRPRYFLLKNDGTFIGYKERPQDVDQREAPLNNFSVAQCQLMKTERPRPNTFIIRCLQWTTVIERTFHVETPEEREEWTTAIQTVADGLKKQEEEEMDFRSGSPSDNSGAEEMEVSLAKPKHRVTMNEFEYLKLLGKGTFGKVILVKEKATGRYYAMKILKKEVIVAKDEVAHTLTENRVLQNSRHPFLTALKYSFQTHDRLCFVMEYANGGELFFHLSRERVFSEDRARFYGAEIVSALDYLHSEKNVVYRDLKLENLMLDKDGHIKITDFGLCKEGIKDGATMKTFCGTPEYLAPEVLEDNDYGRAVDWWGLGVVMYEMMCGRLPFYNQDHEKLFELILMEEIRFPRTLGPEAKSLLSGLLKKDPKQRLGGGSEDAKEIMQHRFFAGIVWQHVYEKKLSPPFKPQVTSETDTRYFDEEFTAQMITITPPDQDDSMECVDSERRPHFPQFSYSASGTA
Chain of UniProt P22455 (whole entry, looked up): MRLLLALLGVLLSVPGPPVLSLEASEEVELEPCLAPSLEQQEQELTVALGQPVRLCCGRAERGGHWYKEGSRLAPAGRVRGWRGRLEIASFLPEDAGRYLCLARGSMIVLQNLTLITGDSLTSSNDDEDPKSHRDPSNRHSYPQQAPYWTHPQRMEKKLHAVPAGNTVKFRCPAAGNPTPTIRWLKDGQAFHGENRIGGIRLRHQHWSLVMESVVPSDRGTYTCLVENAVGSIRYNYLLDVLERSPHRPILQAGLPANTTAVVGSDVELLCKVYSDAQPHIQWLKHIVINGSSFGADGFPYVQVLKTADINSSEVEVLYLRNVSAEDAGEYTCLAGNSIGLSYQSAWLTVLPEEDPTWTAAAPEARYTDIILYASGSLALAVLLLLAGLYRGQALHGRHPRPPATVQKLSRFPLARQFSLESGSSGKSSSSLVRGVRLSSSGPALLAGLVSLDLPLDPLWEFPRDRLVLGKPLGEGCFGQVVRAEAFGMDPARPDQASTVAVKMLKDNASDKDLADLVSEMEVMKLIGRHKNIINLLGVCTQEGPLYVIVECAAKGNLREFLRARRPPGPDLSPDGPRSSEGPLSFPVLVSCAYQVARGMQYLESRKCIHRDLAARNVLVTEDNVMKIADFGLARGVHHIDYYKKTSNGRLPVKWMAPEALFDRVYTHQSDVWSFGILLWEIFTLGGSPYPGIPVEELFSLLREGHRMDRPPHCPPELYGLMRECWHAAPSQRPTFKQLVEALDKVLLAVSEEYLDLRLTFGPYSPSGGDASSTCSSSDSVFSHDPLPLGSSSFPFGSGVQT
Chain of UniProt P49759 (whole entry, looked up): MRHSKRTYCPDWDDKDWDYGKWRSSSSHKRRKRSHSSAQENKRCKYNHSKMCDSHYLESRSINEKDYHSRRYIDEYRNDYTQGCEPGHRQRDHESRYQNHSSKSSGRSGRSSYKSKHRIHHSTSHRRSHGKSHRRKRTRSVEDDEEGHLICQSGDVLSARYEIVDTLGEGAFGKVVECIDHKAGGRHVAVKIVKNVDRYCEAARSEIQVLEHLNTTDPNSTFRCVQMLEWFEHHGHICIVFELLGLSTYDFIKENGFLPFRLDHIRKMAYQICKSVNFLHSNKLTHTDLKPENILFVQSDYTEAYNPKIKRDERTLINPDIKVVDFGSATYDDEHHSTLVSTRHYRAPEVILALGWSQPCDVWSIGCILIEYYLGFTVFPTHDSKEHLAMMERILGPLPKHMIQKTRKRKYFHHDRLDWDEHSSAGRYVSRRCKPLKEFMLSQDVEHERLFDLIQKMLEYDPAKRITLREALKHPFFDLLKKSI

Block 1 — read-out: enzyme activity; mode: inhibitor; concentration: 0.5 µM; relative to: control; measurement: remaining activity
Target: Serine/threonine-protein kinase WNK2 (WNK2, Homo sapiens, UniProt Q9Y3S1)
Chain of UniProt Q9Y3S1 (whole entry, looked up): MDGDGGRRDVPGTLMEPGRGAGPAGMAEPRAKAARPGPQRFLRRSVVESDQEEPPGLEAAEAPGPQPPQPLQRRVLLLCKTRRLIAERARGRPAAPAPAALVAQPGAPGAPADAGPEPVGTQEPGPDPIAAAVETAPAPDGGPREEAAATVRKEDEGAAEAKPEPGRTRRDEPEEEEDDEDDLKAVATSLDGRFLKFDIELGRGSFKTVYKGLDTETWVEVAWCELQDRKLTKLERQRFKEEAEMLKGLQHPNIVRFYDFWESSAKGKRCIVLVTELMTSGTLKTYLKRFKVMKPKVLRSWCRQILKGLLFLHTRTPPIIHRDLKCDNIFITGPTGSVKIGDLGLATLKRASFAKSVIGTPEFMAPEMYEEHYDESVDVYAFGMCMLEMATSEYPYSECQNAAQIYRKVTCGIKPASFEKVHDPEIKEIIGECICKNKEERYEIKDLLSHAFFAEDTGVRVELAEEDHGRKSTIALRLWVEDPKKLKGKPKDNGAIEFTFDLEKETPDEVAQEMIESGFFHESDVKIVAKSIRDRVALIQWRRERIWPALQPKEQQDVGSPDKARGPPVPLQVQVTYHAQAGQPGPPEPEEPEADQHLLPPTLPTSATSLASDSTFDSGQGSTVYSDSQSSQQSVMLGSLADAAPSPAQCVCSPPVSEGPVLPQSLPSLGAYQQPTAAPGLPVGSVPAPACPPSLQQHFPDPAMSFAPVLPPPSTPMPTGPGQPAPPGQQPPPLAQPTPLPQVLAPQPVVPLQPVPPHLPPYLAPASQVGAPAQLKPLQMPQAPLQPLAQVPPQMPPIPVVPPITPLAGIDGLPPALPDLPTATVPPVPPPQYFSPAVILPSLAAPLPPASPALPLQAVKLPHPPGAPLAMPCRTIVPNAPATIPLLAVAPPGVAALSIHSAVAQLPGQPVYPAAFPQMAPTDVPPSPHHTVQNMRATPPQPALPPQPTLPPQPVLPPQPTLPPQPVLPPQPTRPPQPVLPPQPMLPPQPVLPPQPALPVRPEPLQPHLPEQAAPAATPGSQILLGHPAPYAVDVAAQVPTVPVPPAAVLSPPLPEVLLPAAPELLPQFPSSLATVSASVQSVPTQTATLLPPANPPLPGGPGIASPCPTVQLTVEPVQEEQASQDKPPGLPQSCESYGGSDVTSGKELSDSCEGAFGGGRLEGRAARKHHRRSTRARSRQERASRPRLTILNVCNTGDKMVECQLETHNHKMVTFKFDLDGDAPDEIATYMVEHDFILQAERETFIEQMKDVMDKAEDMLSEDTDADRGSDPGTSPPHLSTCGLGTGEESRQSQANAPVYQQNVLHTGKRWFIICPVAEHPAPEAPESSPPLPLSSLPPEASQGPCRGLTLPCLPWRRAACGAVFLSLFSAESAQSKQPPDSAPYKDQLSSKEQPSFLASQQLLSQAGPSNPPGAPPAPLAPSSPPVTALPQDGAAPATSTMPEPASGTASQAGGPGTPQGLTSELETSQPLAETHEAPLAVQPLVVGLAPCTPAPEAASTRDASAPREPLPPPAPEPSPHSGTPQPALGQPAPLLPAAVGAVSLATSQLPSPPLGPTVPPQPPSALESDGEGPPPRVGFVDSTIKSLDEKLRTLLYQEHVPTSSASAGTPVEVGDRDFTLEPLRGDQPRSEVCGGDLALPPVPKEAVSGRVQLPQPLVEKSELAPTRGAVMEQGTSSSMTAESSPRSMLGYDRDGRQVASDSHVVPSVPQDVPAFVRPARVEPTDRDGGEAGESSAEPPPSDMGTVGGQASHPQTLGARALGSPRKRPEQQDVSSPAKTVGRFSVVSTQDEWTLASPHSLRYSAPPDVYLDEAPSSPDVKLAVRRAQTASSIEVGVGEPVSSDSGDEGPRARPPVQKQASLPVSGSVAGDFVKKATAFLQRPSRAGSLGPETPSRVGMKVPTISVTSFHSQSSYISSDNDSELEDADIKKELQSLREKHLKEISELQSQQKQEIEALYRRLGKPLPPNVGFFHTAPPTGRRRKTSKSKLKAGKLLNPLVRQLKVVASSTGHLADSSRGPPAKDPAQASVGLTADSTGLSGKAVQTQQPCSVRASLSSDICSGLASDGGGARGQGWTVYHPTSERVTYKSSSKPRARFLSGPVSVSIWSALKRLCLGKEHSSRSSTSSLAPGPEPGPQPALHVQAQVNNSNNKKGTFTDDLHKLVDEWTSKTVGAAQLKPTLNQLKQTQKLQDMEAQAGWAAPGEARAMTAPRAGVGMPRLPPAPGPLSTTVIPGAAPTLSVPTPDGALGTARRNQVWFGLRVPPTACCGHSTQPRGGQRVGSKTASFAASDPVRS
O=C1c2ccccc2-c2n[nH]c3cccc1c23: 102%
COc1cc2ncnc(Nc3cccc(Cl)c3)c2cc1OC: 98.6%
C[C@@H]1CCN(C(=O)CC#N)C[C@@H]1N(C)c1ncnc2[nH]ccc12: 101%
O=C1C(Cl)=C(N2C(=O)CCC2=O)C(=O)c2ccccc21: 108%
O=C(Nc1cccc(Nc2nccc(Nc3cccc(C(F)(F)F)c3)n2)c1)C1CC1: 122%
Nc1cccc(-c2cc3c(Oc4cccc(O)c4)ncnc3[nH]2)c1: 103%
c1ccc(-c2[nH]ncc2-c2ccnc3ccccc23)nc1: 49.2%
Cc1cn(-c2cc(NC(=O)c3ccc(C)c(Nc4nccc(-c5cccnc5)n4)c3)cc(C(F)(F)F)c2)cn1: 102%
Ic1cccc(CSc2nnc(-c3ccncc3)o2)c1: 99.5%
Cc1nc2cc3nc(-c4cccs4)cnc3cc2n1C: 123%
O=c1cc(-c2cccc3c2Sc2ccccc2S3)oc(N2CCOCC2)c1: 116%
N#C/C(=C\c1ccc(O)c(O)c1)C(=O)NCc1ccccc1: 104%
COc1cc2c(cc1OC)-c1[nH]nc(Nc3cccc(F)c3)c1C2: 104%
N#Cc1c(NC(=O)c2cccc3ccccc23)sc2c1CCCC2: 109%
CCN(CC)CCNC(=O)c1c(C)[nH]c(/C=C2\C(=O)Nc3ccc(F)cc32)c1C: 100%
COc1cc2ncnc(Nc3ccc(O)c(Br)c3)c2cc1OC: 102%
Cc1cc2ncc(-c3ccccc3)nc2cc1C: 98.8%
CN([C@@H](Cc1ccc(OS(=O)(=O)c2cccc3cnccc23)cc1)C(=O)N1CCN(c2ccccc2)CC1)S(=O)(=O)c1cccc2cnccc12: 100%
c1ccc(-c2cnc(Nc3ccc(OCCN4CCCC4)cc3)s2)cc1: 119%
CCN(CC)C(=O)c1ccc(Nc2nc(OCC3CCCCC3)c3[nH]cnc3n2)cc1: 88.6%
CCOc1nc(NC(=O)Cc2cc(OC)ccc2OC)cc(N)c1C#N: 104%
CCN(CC)CCNC(=O)c1c(C)[nH]c(/C=C2\C(=O)Nc3ccc(Cl)cc32)c1C: 101%
O=C(NC(NC(=S)Nc1ccc(F)c([N+](=O)[O-])c1)C(Cl)(Cl)Cl)C(c1ccccc1)c1ccccc1 (centres unmarked): 117%
Cn1nc2c3c(cccc31)C(=O)c1ccccc1-2: 104%
CN(C)C[C@H]1CCn2c(c(C3=C(c4cn(C)c5ccccc45)C(=O)NC3=O)c3ccccc32)C1: 103%

Block 2 — species: mouse; matrix: microsomes or S9; concentration: 2 µM; time: 0.5 h; measurement: remaining compound
Cc1ccc(-c2nccn3cc(C(=O)N(C)Cc4cn(C)nc4C)nc23)cc1: 6.12%
CC(C)COc1cc(=O)n2c(c1C(=O)NCCCN1CCOCC1)CCCCC2: 62.5%
c1ccc(C2CCC3(CC2)Oc2ccccc2C2CC(c4ccncc4)=NN23)cc1 (centres unmarked): 65.6%
COc1ccc2c(c1)C(=O)CC(c1ccccc1)O2 (centres unmarked): 27.6%
COC(=O)c1sc2ncn(CC(C)=O)c(=O)c2c1C: 0.222%
Cc1nc(-c2c[nH]c(C(=O)N3CCOc4cc(F)ccc43)c2)cs1: 98.5%
CCc1ccc(C2=NN(c3ccc(S(N)(=O)=O)cc3)C(c3ccc(O)cc3)C2)cc1 (centres unmarked): 87%
Cc1c(C(=O)Nc2cc(Cl)ccc2OCC2CCCO2)oc2c1C(=O)CC(C)(C)C2 (centres unmarked): 79.7%
O=C(Cn1nc2c(cc1=O)CCCCC2)Nc1n[nH]c(C2CCCO2)n1 (centres unmarked): 78.2%
Cc1cc(O)cc(NS(=O)(=O)c2cnn3c2OCC(C)(C)C3)c1: 87.7%
CCC(c1ccc(F)cc1)S(=O)(=O)c1ncc(CO)n1C (centres unmarked): 19.8%

Block 3 — read-out: cell-free assay; method: competition with immobilised ligand; concentration: 1 µM; measurement: remaining binding
Structure (SMILES): COc1cccc(CNC(=O)c2nc3scc(COCc4ccc(C(=O)O)cc4)c3c(=O)[nH]2)c1
KIT (Homo sapiens, UniProt P10721, T670I/V559D): 100%
AKT1 (Homo sapiens, UniProt P31749): 99.9%
STK3 (Homo sapiens, UniProt Q13188): 100%
KIT (Homo sapiens, UniProt P10721, V559D/V654A): 98%
BRSK1 (Homo sapiens, UniProt Q8TDC3): 100%
STK38 (Homo sapiens, UniProt Q15208): 72%
ERBB3 (Homo sapiens, UniProt P21860): 89.4%
KIT (Homo sapiens, UniProt P10721, L576P): 100%
RIPK1 (Homo sapiens, UniProt Q13546): 97.4%
DDR1 (Homo sapiens, UniProt Q08345): 100%
HIPK1 (Homo sapiens, UniProt Q86Z02): 88.4%
NLK (Homo sapiens, UniProt Q9UBE8): 80.3%
TXK (Homo sapiens, UniProt P42681): 87.7%
CLK1 (Homo sapiens, UniProt P49759): 95.6%
TNK1 (Homo sapiens, UniProt Q13470): 100%
FGFR4 (Homo sapiens, UniProt P22455): 91.4%
EGFR (Homo sapiens, UniProt P00533, G719S): 100%

Block 4 — cell line: A-375; concentration: 100 µM; time: 18 h; measurement: viability
COc1c(N2CCNC(C)C2)c(F)cc2c(=O)c(C(=O)O)cn(C3CC3)c12 (centres unmarked): 57.9%
CO[C@H]1/C=C/O[C@@]2(C)Oc3c(C)c(O)c4c(O)c(c(/C=N/N5CCN(C)CC5)c(O)c4c3C2=O)NC(=O)/C(C)=C\C=C\[C@H](C)[C@H](O)[C@@H](C)[C@@H](O)[C@@H](C)[C@H](OC(C)=O)[C@@H]1C: 101%
CCN(CCCc1ccccc1)CCCc1ccccc1: 47.3%
Cn1cc[nH]c1=S: 96.2%
Cc1[nH]c2ccccc2c1CCNCc1ccc(/C=C/C(=O)NO)cc1: 39%
CCOc1ccc(Cc2cc([C@@H]3O[C@H](CO)[C@@H](O)[C@H](O)[C@H]3O)ccc2Cl)cc1: 96.2%
CO[C@H]1C[C@H](O[C@H]2[C@H](C)O[C@@H](O[C@@H]3/C(C)=C/C[C@@H]4C[C@@H](C[C@]5(C=C[C@H](C)[C@@H](C6CCCCC6)O5)O4)OC(=O)[C@@H]4C=C(C)[C@@H](O)[C@H]5OC/C(=C\C=C\[C@@H]3C)[C@]54O)C[C@@H]2OC)O[C@@H](C)[C@@H]1O: 40.7%
COc1ccc(-c2ccc3cc(C(=O)O)ccc3c2)cc1[C@]12C[C@H]3C[C@H](C[C@H](C3)C1)C2: 12.5%
CO[C@H]1C[C@@H]2CC[C@@H](C)[C@@](O)(O2)C(=O)C(=O)N2CCCC[C@H]2C(=O)O[C@H]([C@H](C)C[C@@H]2CC[C@@H](OC(=O)C(C)(CO)CO)[C@H](OC)C2)CC(=O)[C@H](C)/C=C(\C)[C@@H](O)[C@@H](OC)C(=O)[C@H](C)C[C@H](C)/C=C/C=C/C=C/1C: 36.8%

Some of these lines once more (block 3):
KIT (Homo sapiens, UniProt P10721, T670I/V559D): 100%
ERBB3 (Homo sapiens, UniProt P21860): 89.4%
TNK1 (Homo sapiens, UniProt Q13470): 100%
NLK (Homo sapiens, UniProt Q9UBE8): 80.3%
CLK1 (Homo sapiens, UniProt P49759): 95.6%
EGFR (Homo sapiens, UniProt P00533, G719S): 100%
DDR1 (Homo sapiens, UniProt Q08345): 100%
FGFR4 (Homo sapiens, UniProt P22455): 91.4%
AKT1 (Homo sapiens, UniProt P31749): 99.9%
STK38 (Homo sapiens, UniProt Q15208): 72%
